Experimental data from different studies.
Each numbered part is a random draw from the data of one study; scales do not carry over between parts.

Study 1
Target: Sal-like protein 4, full length isoform B (SALL4, Homo sapiens, UniProt Q9UJQ4-2, residues 1-616)
Method: universal PBM
Molecule type: double-stranded DNA, one strand shown
Matrix: in vitro
Concentration: not given
Setting: 8-mer, flanks averaged, mean of replicates
Reading: higher = stronger binding
Measurement: E-score
AGCAATCA: 0.092
ACGGTTTG: -0.2
AGTTAGAG: -0.152
GATCTCTA: 0.0247
GAGCGTCC: -0.329
CCATTGCG: -0.212
CCTTAAGC: -0.104
CCACGGGC: -0.385

Study 2
Target: Max-binding protein MNT, bHLH-zipper, MAX partner unstated (MNT, Homo sapiens, UniProt Q99583, residues 220-300)
Method: protein-binding microarray
Molecule type: double-stranded DNA, one strand shown
Matrix: in vitro
Concentration: not given
Setting: k-mer, scored over probes, only values ≥0.25
Reading: higher = stronger binding
Measurement: E-score
Construct (chain): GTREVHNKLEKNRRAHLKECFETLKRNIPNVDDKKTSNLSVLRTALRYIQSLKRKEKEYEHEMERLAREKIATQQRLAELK
AAAGCACG: 0.301
CACGAGCG: 0.346
AGGAGCAC: 0.258
ACGGGGCG: 0.353
CGTGGCAG: 0.335
CGTGATTA: 0.296
AGGCACGA: 0.268
CGTGGGAA: 0.389

Study 3
Target: Histone acetyltransferase KAT6A, both winged helices, GST fusion (KAT6A, Homo sapiens, UniProt Q92794, residues 1-181)
Method: protein binding microarray
Molecule type: double-stranded DNA, one strand shown
Matrix: in vitro
Concentration: not given
Setting: 8-mer, flanks averaged, mean of 2 arrays, mostly near background
Relative to: not given
Reading: higher = stronger binding
Measurement: E-score
Target sequence (chain): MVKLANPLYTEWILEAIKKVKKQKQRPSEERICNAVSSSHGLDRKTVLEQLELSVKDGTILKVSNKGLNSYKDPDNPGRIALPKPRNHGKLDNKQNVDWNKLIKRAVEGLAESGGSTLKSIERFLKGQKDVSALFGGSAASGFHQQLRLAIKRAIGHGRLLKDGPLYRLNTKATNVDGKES
AGGTACCC: -0.133
TATTGCCA: -0.154
AATCATCC: -0.0878
CGCTCAAA: 0.162
CGGACGTA: 0.193
AAGCCCGT: 0.203
ATGATAGG: -0.223
ACTACACG: -0.012

Single results of other studies
Cc1cccc(Nc2cc(Cl)nc(SCC(=O)O)n2)c1C — viability (A-375; 100 µM, 36 h): 108%

A few entries again (single results of other studies):
Cc1cccc(Nc2cc(Cl)nc(SCC(=O)O)n2)c1C — viability (A-375; 100 µM, 36 h): 108%
